Measurements from different studies.
Lines come from different studies, so protocols differ.

| Compound | host | matrix | route | dose | notes | Tmax |
| --- | --- | --- | --- | --- | --- | --- |
| CC(=O)O[C@@H]1CC[C@@]2(C)[C@@H](CC[C@]3(C)[C@@H]2C(=O)C=C2[C@@H]4[C@@H](C)[C@H](C)CC[C@]4(C)CC[C@]23C)[C@@]1(C)C(=O)O | female Wistar rat | plasma | oral | 1 mg/kg |  | 360 min |
| CCC(CC)n1c(Cc2cccs2)nc2cc(C(=O)N[C@@H](CC(=O)O)c3ccccc3)ccc21 | male Sprague-Dawley rat | plasma | intraperitoneal | 10 mg/kg |  | 19.8 min |
| CC(=Nc1ccc(N)cc1)N(C)C | male Sprague-Dawley rat | plasma | intravenous | 20 mg/kg |  | 4.98 min |
| C=C(NC(=O)c1csc(-c2nc3c(cc2O)-c2nc(cs2)C(=O)NC(C(C)O)C(=O)NC(=C(C)OC)c2nc(cs2)C(=O)NC2c4nc(cs4)C(=O)NC(COC(=O)c4c5c6c(cccc6n4O)COC(=O)C(OC4CC(C)(O)C(N(C)C)C(C)O4)C2OC5)c2nc-3cs2)n1)C(N)=O (centres unmarked) | female Sprague-Dawley rat | plasma | intravenous | 2 mg/kg | single dose, infusion | 4.8 min |
| O=C(O)c1c(O)cc(O[C@@H]2O[C@H](CO)[C@@H](O)[C@H](O)[C@H]2O)cc1/C=C/c1ccccc1 | male Sprague-Dawley rat | plasma | oral | 5 mg/kg |  | 12.5 min |
| Cc1cccc(Cn2ncc3c4cc(F)c(CN(C)C)cc4n(C)c3c2=O)n1 | Sprague-Dawley rat | plasma | oral | 10 mg/kg |  | 30 min |
| CCOP(=O)(CC(=O)Nc1ccc(S(=O)(=O)N(CC(N)=O)c2ccc(N(CC(N)=O)S(=O)(=O)c3ccc(OC)cc3)c3ccccc23)cc1)OCC | male Wistar rat | plasma | oral | 28 mg/kg | single dose | 47.5 min |
| OC1(C(F)(F)F)CCN(c2nc(Nc3ccnc(C(F)(F)F)c3)nc(-c3cccc(C(F)(F)F)n3)n2)C1 (centres unmarked) | Sprague-Dawley rat | plasma | oral | 20 mg/kg |  | 360 min |
| CCC(CC)n1c(Cc2ccco2)nc2cc(C(=O)N[C@@H](CC(=O)O)c3ccccc3)ccc21 | male Sprague-Dawley rat | plasma | intravenous | 1 mg/kg |  | 4.8 min |
| CN1CCC[C@@H]1C(=O)N[C@@H](Cc1ccc(-c2ccccc2)cc1)B(O)O | male Sprague-Dawley rat | plasma | oral | 1 mg/kg |  | 18 min |
| OCC1OC(n2cnc3c(NCc4ccc(Br)s4)ncnc32)C(O)C1O (centres unmarked) | male Sprague-Dawley rat | blood | oral | 10 mg/kg |  | 42 to 78 min |
| C/C(N)=N/C(=N\S(=O)(=O)c1ccc(C(F)(F)F)cc1)N1C[C@H](c2ccccc2)C(c2ccc(Cl)cc2)=N1 | male Sprague-Dawley rat | plasma | oral | 3 mg/kg |  | 120 min |
| COC1C(c2ccc(Cl)c(Cc3ccc(OC4CCOC4)cc3)c2)OC(CO)C(O)C1O (centres unmarked) | Sprague-Dawley rat | plasma | oral | 5 mg/kg |  | 25.2 min |
| CCCN(C)c1cc(C(F)(F)F)nc(SCCC(=O)NCc2ccco2)n1 | male Wistar rat | plasma | intraperitoneal | 25 mg/kg | single dose | ≤ 2 min |

For quick reference, copied from above:
| Compound | host | matrix | route | dose | notes | Tmax |
| --- | --- | --- | --- | --- | --- | --- |
| CCOP(=O)(CC(=O)Nc1ccc(S(=O)(=O)N(CC(N)=O)c2ccc(N(CC(N)=O)S(=O)(=O)c3ccc(OC)cc3)c3ccccc23)cc1)OCC | male Wistar rat | plasma | oral | 28 mg/kg | single dose | 47.5 min |
| CC(=Nc1ccc(N)cc1)N(C)C | male Sprague-Dawley rat | plasma | intravenous | 20 mg/kg |  | 4.98 min |
